Assay results gathered from unrelated publications.
Every numbered part comes from another study and shows a few of its results, in no order.

Study 1
Target: Histone acetyltransferase KAT6A, both winged helices, GST fusion (KAT6A, Homo sapiens, UniProt Q92794, residues 1-181)
Technique: protein binding microarray
Form: double-stranded DNA, one strand shown
Matrix: in vitro
Concentration: not given
Notes: 8-mer, flanks averaged, mean of 2 arrays, mostly near background
Reference: not given
Direction: higher = stronger binding
Measurement: E-score
Target sequence (chain): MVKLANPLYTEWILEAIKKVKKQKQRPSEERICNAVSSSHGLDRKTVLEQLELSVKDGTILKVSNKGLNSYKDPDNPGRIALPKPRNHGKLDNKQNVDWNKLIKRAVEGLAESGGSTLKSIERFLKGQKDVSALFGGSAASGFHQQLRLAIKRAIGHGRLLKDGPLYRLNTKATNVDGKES
ACGGGCTG: 0.0837
CGTCTTAA: 0.0407
GAGGTAGA: -0.173
ATTCGGAC: 0.152
ACGGTTCC: 0.167
GCGAAAGA: -0.0595
CGGTGCAC: 0.0627
GAGATCCC: -0.0205
GATGTACA: 0.0356
AAGTAATG: -0.0568
CCCTTCCA: -0.101
GGCCTTTA: 0.0488
AGTTGGAC: -0.11
CGTCTGGC: 0.0575
ACGATTGG: -0.0383
GAAAATCA: 0.0266
CTCCGGCC: 0.129
GAAAATTA: -0.128
CACCCGCA: 0.141

Study 2
Target: RING finger protein unkempt homolog, zinc fingers 1-6, GST-SBP tag (UNK, Homo sapiens, UniProt Q9C0B0, residues 30-357)
Technique: RNA Bind-n-Seq
Form: RNA
Matrix: in vitro
Concentration: not given
Notes: RNA with constant flanks, human and mouse sites, ends assumed
Reference: input RNA pool
Direction: higher = stronger binding
Measurement: bound/input enrichment
All sequences stand within: GGGAGUUCUACAGUCCGACGAUC … CAACAGAGGAUUGAGCAUCA
Construct (chain): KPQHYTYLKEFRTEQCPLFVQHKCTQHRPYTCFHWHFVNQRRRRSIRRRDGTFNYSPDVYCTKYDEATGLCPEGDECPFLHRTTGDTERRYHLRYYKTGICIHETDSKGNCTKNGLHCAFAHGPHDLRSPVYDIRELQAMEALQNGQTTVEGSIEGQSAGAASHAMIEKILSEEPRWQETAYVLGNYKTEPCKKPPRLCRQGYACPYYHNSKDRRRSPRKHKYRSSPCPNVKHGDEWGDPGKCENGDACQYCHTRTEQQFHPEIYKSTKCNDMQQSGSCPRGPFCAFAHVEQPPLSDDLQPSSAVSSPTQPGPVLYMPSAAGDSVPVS
UGCACCUUUAGAACUAUUAAUAGCAACCUGCAUUUUUUUUUAAUUUAUACUUCAGAAUCCUUUAAGAACCUGGUGUUCCUGAGUGGUCCUGAAUCAUAUAAGUUGGUAAUGGAAGCUGUA: 3.16 ratio
GGGAUUUUCAUGUUAACUUUUUUCAUGGCAUUCCUCUUUAACUGGAUUGGGUUUUUCCUGUCUUUUUGCCUGACCACUUCAGCUGCAGGAAGGUAUGGGGCCAUUUCAGGAUUUGGUCUC: 0.157 ratio
AAAUCCAUUUCCGUGUUUAAUGUUAGUUGUUUAUGUGUUAGUAUUCCUGUGUCUACUGUUUUGUUGUUGUUAAUAUGGGUAAAGUGAGCCCUGAAAUACAUGCUAAACAAGACAUGAAAU: 1.46 ratio
UUUGCUAGCCAAGGAAAGUAAAAUGUGAUUUUGUAACUGCACUAAACAUUUGUCAUGCUGUAGUUGCCAGCCCAGAAUAUUAGAAGUUACAAGACUGAUUUAAACCGUCUCUGAUUUAAU: 0.54 ratio
AUUCUGAGGUAUAUCUGCUGCCUUGGAAGACAUAAGAAGCAGUGAUACUCCCUGGCUCGGUUAUUUUCUCCAUACAAUGCACACAUGGUACAAUGAUAGAAGGCAAAAUUGCCACUGUCU: 0.0958 ratio
CAUCUGCGUCACCACAUAUGUGCUGAACUUCCUCCUCCUCAUCAUCAAUUACAAACGACUAGUUUAUUUGAAUGAGGCCUGGAAGCGACAGCUGCAGCCUAAGGAAGACUGAUGGCCAGC: 0.192 ratio
CUGACACCUCAGGGCACACUUGCCGAGAGGAUCCGUGCCGGUGGAGCUGGAGUCCCUGCCUUCUACACCAGCACAGGGUAUGGGACUCUGGUACAGGAAGGAGGAUCACCCAUCAAAUAU: 0.0831 ratio
UGCUGCAGUAAAACACUGAAGGCUUUAAAAUGUUUUCUUGCAUAAAAGUCAAACUUUAAGUAGCUGCUUAUGAGGAUAGGGAAGGCAGGAAGCUAAUGUCUGUCUCAAGACACAGGACAG: 0.248 ratio
UCCAGAAGCACUGCGUAUGAAGAUUAUUAUUAUCACCCUCCUCCCCGAAUGCCACCUCCAAUGAGAGGCCGAGGUCGUGGAGGGAGAGGUGGAUAUGGCUACCCUCCAGAUUAUUAUGGC: 0.119 ratio
GCAGGGCUUUACUUUACACUCUCCUUUUUAUCCUUGUAUUUUUCUAAAGGUAACUGAUUGCUUAGAUGCUGAGUAAGGAAGAUACAUUGUUGUCAUUGUUUGGCUUUGGUAGAAUGAAAC: 0.207 ratio
CGGCAUGCCCAGGGGGGUACAUGGUAUGGAGUAGACAUCAACAACGAGGACAUUGCUGACAACUUUGAAGCUUUCGUGUGGGAGCCAGCUAUGGUGCGGAUCAAUGCGCUGACAGCAGCC: 0.291 ratio

Study 3
Target: RNA binding protein fox-1 homolog 2, RRM domain, GST-SBP tag (RBFOX2, Homo sapiens, UniProt O43251-10, residues 100-194)
Technique: RNA Bind-n-Seq
Form: RNA
Matrix: in vitro
Concentration: 365 nM
Notes: natural RNA segment, single round, ends assumed
Reference: no-protein control
Direction: higher = stronger binding
Measurement: RBNS enrichment (R)
All sequences stand within: GGGAGUUCUACAGUCCGACGAUC … UGGAAUUCUCGGGUGCCAA
Residues (chain): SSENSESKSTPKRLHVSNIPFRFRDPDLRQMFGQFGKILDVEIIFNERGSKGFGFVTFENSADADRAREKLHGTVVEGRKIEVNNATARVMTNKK
UCUGUGAUUGCUAAGCAGUAGCCAAAUAACCUUCCUUUGCUGUAUCUGCGUCCCUUCUGAAGGCACUUUAUGGAGGUCACAUCUGGUUUUGUUUCCAUUUUUUUUUUUUU: 1.03
GUGUGGUUAGUGGAAGACCUGGAGACAAAGGGGACUGUGGCUGGUGUCACCUGGAGAUGCCCUCUAUUGUGGCUUGGUUGGGCUUGUGUUUGAAAUGCUUUACAAAGGAA: 2.03
UUGUAAUAAGCAAUCAAGGUUAUAAUUUUUUUUAAAAUAGAAAUUUUGUAAGAAGGCAAUAUUAACCUAAUCACCAUGUAAGCACUCUGGAUGAUGGAUUCCACAAAACU: 0.577
AAAGGCCGUUUUAUUAGAAAUUUAGGCUUUCAUGCCUGUAGACCCUAGUUAUUAAAUGCACUAAACAAACAACUGCAUUUAAAGCAUUGGCCUUAGCAGAAGUGACUGAC: 0.255
CAUGCCUUUAUGGGAGCAGCCACUCUCUGACUAAGUGGCCACUGCUCUCACUUAGACUUUGCUGUCCUCUAUGCUAACUAUGUAGAAGCUGGCUUUAGAUUAAAUGACUA: 0.262
UUCAGUACUGGGUGGUUCAGCAGGGAAGCCGGGUGGGACCAGUGUGUCUGUCAUGAAACCACUAACUGCAUUCCUGACUGAAGAGCCAUCUGUCAUUUAUUGGGGAAGGU: 0.712
CCUGAUAGACUGAAAAUUGAGCAAAUGGAAGAAGAUACAGUAUUGUUUAGAUCAGAAUCAUUAAAAAAUAUUUUUGUUUAGUAAGUUUGAAGAUUUCUGGCUUUUAGGCC: 0.873
GCCCCCCCACCUCGCCCGGCUCACACCCCCAAAGGGAGGGACCCACAUUGCACACACUGUAAGAAAUGCACUUUCCGAGGAAGGGGAUGGGGGAGCCCGGACACCCAGAG: 0.448
GAAAUGCCAUCUUAUUACCUGAGACGACCAGCACUGGGAGUUAGGUACGGUCUGAAGUUAUGUCUAGAUAAGACUUCAGACGUCCUGGGAUUGAAAGAAUGUGUGUGAAG: 0.694
AUUAUAGUGCUUUGUUUGUUUCAGGGUUGGAAUUCUCAACCAGAAAUAAUACUUUCUAAAAUAUUUUAAAAUUCAGCUUGUGCUUUGGAUUAUAGAAGGAAAUUAUACUU: 1.7
GUCAGUACCAGUAGCUUCAGGGUCUGUCGUAGGAGCGAGGACAACUGUAAACACAGGGUCCGCUGAUCAAGUCCUUCUUGCUCAUUGCAGUUUGAUUUGCCAGCAGUCAU: 0.44
UGAGCCCCUCACAGCCUUGCCCCUCCCCAAGGCUGGCAACCUGCCUCCCAUUGCCCAAGAGAGAGGGCAGGGAACAGGCUACUGUCCUUCCCUGUGGAAUUGCCGAGAAA: 0.546

Study 4
Target: Interferon regulatory factor 7, full length, phosphomimetic (IRF7, Homo sapiens, UniProt Q92985, residues 1-503, S471D/S472D/S475D/S476D/S477D/S483D/S484D/S487D)
Technique: protein-binding microarray
Form: double-stranded DNA, one strand shown
Matrix: in vitro
Concentration: 2200 nM top
Notes: 60-bp whole probe
Added: salmon DNA 0.4 mg/ml
Reference: random background probes
Direction: higher = stronger binding
Measurement: fitted relative affinity
All sequences stand within: GCCTAGCAC … GTCTTGATTCGCTTGACGCTGCTG
Residues (chain): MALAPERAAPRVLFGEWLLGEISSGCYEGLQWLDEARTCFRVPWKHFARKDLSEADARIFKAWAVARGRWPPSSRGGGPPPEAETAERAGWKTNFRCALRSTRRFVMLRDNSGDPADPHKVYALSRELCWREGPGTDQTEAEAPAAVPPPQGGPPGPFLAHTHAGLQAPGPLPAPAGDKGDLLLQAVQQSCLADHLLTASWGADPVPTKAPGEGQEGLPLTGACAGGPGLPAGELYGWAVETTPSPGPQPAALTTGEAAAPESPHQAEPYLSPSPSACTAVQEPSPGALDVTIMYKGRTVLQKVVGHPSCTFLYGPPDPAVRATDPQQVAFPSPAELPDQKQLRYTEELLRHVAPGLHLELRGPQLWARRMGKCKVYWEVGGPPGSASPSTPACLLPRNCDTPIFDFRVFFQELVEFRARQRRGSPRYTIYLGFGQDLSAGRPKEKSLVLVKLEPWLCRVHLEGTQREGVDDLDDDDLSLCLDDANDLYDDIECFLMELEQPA
TCATGTTGTTTTTTGGTACTGTGCTAG: 2.11 z-score
TTAGATCTCAATCTCGATTAGTGCTAG: 0.156 z-score
TTAGATATCGGGTATCGATTTGTGCTA: 0.899 z-score
TTAGTTATCCTTATCCTTTAGTGCTAG: 1.42 z-score
TCAGGTTTCGGGTATCGGTTAGTGCTA: 6.54 z-score
GACGGTCTGGGACTGGGGACGTGCTAG: -0.747 z-score
GAGGGTTTCCTTTTCCTGACGTGCTAG: 3.07 z-score
CTAGATCTCAGACTGGATTAGTGCTAG: 0.19 z-score
TCATGTATGAGCCTCTGACTGTGCTAG: 0.83 z-score
ACCATTGTGGTTTTCATTATGTGCTAG: 1.38 z-score
GACGTTATCCTTTTCCTGACGTGCTAG: 1.93 z-score
GTCGATATCGGGACTGGAGACGTGCTA: 0.203 z-score
AACACTCTTCTTTTGCTAATGTGCTAG: 1.38 z-score
GACGGTTTCCTTTTCCTGTCGTGCTAG: 6.56 z-score
CAAATTGTCTCTGTCCCTGTGTGCTAG: 1.45 z-score
TTTCTTTTCTTTTCTTTTTTGTGCTAG: 13.4 z-score
TTAGGTATCTGGTATCGGTTAGTGCTA: 0.547 z-score
ATAAATATGAGACTGGGGATGTGCTAG: -0.206 z-score
GTTTTTTTCTACTTCTCTTTGTGCTAG: 3.61 z-score
ATAGGTTTCCTTCTCCTTTAGTGCTAG: 2.59 z-score
TCACCATTTTTTTTCACACTGTGCTAG: 2.02 z-score
GCCGATTTCAGTCTCGAGACGTGCTAG: 1.51 z-score
GACGGTCTCCCACTGCTGACGTGCTAG: 0.179 z-score
TTCATTTACATTTCCAATACGTGCTAG: 2.42 z-score
CTCTGGGGCTCCAGGGAGAAGTGCTAG: -1.66 z-score

A few entries again (study 1):
ACGGGCTG: 0.0837
CGTCTTAA: 0.0407
GAGGTAGA: -0.173
ATTCGGAC: 0.152
ACGGTTCC: 0.167
GCGAAAGA: -0.0595
CGGTGCAC: 0.0627
GAGATCCC: -0.0205
GATGTACA: 0.0356
AAGTAATG: -0.0568
